Measured values of several laboratories.
Cell line: HEK293
Read-out: cell growth or viability

CC(C)[C@@H](C)Nc1nc(-c2cccs2)nc(Cl)c1-c1c(F)cc(F)cc1F
CC50 (resazurin; 48 h): > 50 µM

O=C1C(NCCc2ccc(O)cc2)=CC2=NCCc3c(Br)[nH]c1c32
CC50 (MTT; 72 h): 5 µM

CC[C@H]1OC(=O)[C@H](C)[C@@H](OC(=O)Cc2cccc(Cl)c2)[C@H](C)[C@@H](O[C@@H]2O[C@H](C)C[C@H](N(C)C)[C@H]2O)[C@](C)(OC)C[C@@H](C)C(=O)[C@H](C)[C@@H](O)[C@]1(C)O
CC50: > 32 µg/mL

O=C1C(NCCc2ccc(O)c(Br)c2)=CC2=NCCc3c[nH]c1c32
CC50 (MTT; 72 h): 4 µM

COC(=O)c1c2c(cc(O)c(=O)c1O)COC2=O
CC50 (MTS): > 100 µM

O=C1C(=O)c2[nH]cc3c2C(=C1Cl)NCC3
CC50 (MTT; 72 h): 20 µM

CCOC(=O)c1ccc2c(c1)C1CC(C)(N2)c2c(C)nc3ccc(C(=O)OCC)cc3c21 (centres unmarked)
CC50 (MTT): > 400 µM

Cc1ccc(S(=O)(=O)n2cc3c4c2C(=O)C(NCCc2ccc(O)cc2)=CC4=NCC3)cc1
CC50 (MTT; 72 h): 1 µM

Cc1ccc(Cn2cc(C(=O)N/N=C/c3ccc([N+](=O)[O-])o3)c(=O)c3ccc(Oc4ccccc4)cc32)cc1
CC50 (resazurin; 48 h): > 20 µM

CC[C@H]1OC(=O)[C@H](C)C(=O)[C@H](C)[C@@H](O[C@@H]2O[C@H](C)C[C@H](N(C)C)[C@H]2O)[C@](C)(OC)C[C@@H](C)C(=O)[C@H](C)[C@H]2N(CCCCn3cnc(-c4cccnc4)c3)C(=O)O[C@]12C
CC50: > 32 µg/mL

CCOC(=O)CCCc1cccc2c(-c3ccc(Oc4ccccc4)cc3)ccnc12
CC50 (MTT): > 400 µM

CC[C@H]1OC(=O)[C@H](C)[C@@H](OC(=O)Cc2c(F)cccc2F)[C@H](C)[C@@H](O[C@@H]2O[C@H](C)C[C@H](N(C)C)[C@H]2O)[C@](C)(OC)C[C@@H](C)C(=O)[C@H](C)[C@@H](O)[C@]1(C)O
CC50: > 32 µg/mL

C[N+]1=C2C=C(NCCc3c[nH]c4ccccc34)C(=O)c3[nH]cc(c32)CC1
CC50 (MTT; 72 h): 0.5 µM

O=c1c(O)ccccc1O
CC50 (MTS): > 100 µM

CC[C@H]1OC(=O)[C@H](C)[C@@H](OC(=O)Cc2ccc3c(c2)OCO3)[C@H](C)[C@@H](O[C@@H]2O[C@H](C)C[C@H](N(C)C)[C@H]2O)[C@](C)(OC)C[C@@H](C)C(=O)[C@H](C)[C@@H](O)[C@]1(C)O
CC50: > 32 µg/mL

COC(=O)c1cc(O)c(=O)c(O)cc1C
CC50 (MTS): > 90 µM

CC[C@H]1OC(=O)[C@H](C)[C@@H](OC(=O)Cc2ccc(C(F)(F)F)cc2)[C@H](C)[C@@H](O[C@@H]2O[C@H](C)C[C@H](N(C)C)[C@H]2O)[C@](C)(OC)C[C@@H](C)C(=O)[C@H](C)[C@@H](O)[C@]1(C)O
CC50: > 32 µg/mL

A few entries again:
CC[C@H]1OC(=O)[C@H](C)[C@@H](OC(=O)Cc2c(F)cccc2F)[C@H](C)[C@@H](O[C@@H]2O[C@H](C)C[C@H](N(C)C)[C@H]2O)[C@](C)(OC)C[C@@H](C)C(=O)[C@H](C)[C@@H](O)[C@]1(C)O
CC50: > 32 µg/mL

CCOC(=O)c1ccc2c(c1)C1CC(C)(N2)c2c(C)nc3ccc(C(=O)OCC)cc3c21 (centres unmarked)
CC50 (MTT): > 400 µM

CC[C@H]1OC(=O)[C@H](C)C(=O)[C@H](C)[C@@H](O[C@@H]2O[C@H](C)C[C@H](N(C)C)[C@H]2O)[C@](C)(OC)C[C@@H](C)C(=O)[C@H](C)[C@H]2N(CCCCn3cnc(-c4cccnc4)c3)C(=O)O[C@]12C
CC50: > 32 µg/mL
